Experimental data from different studies.
Every numbered part comes from another study and shows a few of its results, in no order.

Sample 1
Target: Ras GTPase-activating protein-binding protein 1, full length (G3BP1, Homo sapiens, UniProt Q13283)
Chain of UniProt Q13283 (whole entry, looked up): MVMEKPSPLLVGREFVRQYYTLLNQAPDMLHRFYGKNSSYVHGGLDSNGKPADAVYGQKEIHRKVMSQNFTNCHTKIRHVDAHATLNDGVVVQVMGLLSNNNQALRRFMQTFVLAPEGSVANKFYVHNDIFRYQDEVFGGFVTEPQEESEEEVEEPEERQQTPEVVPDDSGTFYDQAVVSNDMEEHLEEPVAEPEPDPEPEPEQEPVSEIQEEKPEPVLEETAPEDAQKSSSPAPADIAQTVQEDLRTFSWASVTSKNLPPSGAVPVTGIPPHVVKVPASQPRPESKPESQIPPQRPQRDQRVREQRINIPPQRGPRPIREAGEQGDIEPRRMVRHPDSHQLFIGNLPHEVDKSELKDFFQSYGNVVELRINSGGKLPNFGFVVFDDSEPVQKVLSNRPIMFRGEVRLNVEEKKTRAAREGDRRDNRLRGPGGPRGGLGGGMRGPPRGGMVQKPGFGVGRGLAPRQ
Method: RNA Bind-n-Seq
Form: RNA
Sample: in vitro
Tested at: 200 nM
Notes: whole 134-nt RNA, ends assumed
Together with: 150 mM LiCl
Baseline: input library
Reading: higher = stronger binding
Library: 7-deaza-guanosine replaces G
Shared flanks, not repeated: GGGAGUUCUACAGUCCGACGAUC … UGGAAUUCUCGGGUGUCAAGG
Strand | log2 enrichment
GGACAAGAAUCCUUCAAGAAACAGGAAAAAACUCCUAAAACACCAAAAGGACCUAGUUCUGUAGAAGACAUUAAAGCAAAAAUGCAAGCA | 1.04
UGUGCUACACAUCGUAUGUACCGAAUCGGGAAAAAAAGGGGAAAAAAAGGGGAAAAAAAGGGAAAGUAUUAUGUUACGCCGUUCGGAUCU | 0.339
CUGUGCUACACAUCGUAUGUACCGAAUCGGGGUUUUUUUGGGGUUUGGGGUUUUUUUGGGGAAAGUAUUAUGUUACGCCGUUCGGAUCUG | 0.928
CCUCAAGUCCUGUGCUACACAUCGUAUGUACCGAAUCGGAGGAAAGGUUUGGAAAGUAUUAUGUUACGCCGUUCGGAUCUGCACUUCCAG | -0.963
UCCUCAAGUCCUGUGCUACACAUCGUAUGUACCGAAUCGGUGGGGUGGUGGAAAGUAUUAUGUUACGCCGUUCGGAUCUGCACUUCCAGC | -0.253
UGGCCCUGGUGGCAUGCGGGGAGGAACAGGUGGCCUCAUGGAUCGUGGUGGUCCCGGUGGAAUGUUCAGAGGUGGCCGUGGUGGAGACAG | 0.27
AGUCCUGUGCUACACAUCGUAUGUACCGAAUCGGGGAAAGGGGAAAAAGGGGUGGGGAAAGUAUUAUGUUACGCCGUUCGGAUCUGCACU | 0.147
AGUCCUGUGCUACACAUCGUAUGUACCGAAUCGGUUUGGUUUUUUUGGAAAAAAAGGAAAGUAUUAUGUUACGCCGUUCGGAUCUGCACU | -1.81
UAGAUAUCCAUAGAAAAGAGAACUCUGGAGCUGCAGAGAAGCCUGUCACCAUCCAUGCCACCCCAGAGGGGACUUCUGAAGCAUGCCGCA | -0.823
UCAAGUCCUGUGCUACACAUCGUAUGUACCGAAUCGGGUUUGGGAGGGAAAGGGAAAGUAUUAUGUUACGCCGUUCGGAUCUGCACUUCC | -0.945
ACCAUGCAGGUGGGCAUCUUUGGGAAGUGGGGCAAGGGGGGGAUAGGGAGAGGGGUAACACUUUGGGAACAGGUGGUCCCAGGUCGUUUC | 0.347

Sample 2
Target: RNA binding protein fox-1 homolog 2, RRM domain, GST-SBP tag (RBFOX2, Homo sapiens, UniProt O43251-10, residues 100-194)
Method: RNA Bind-n-Seq
Form: RNA
Sample: in vitro
Tested at: 365 nM
Notes: natural RNA segment, single round, ends assumed
Baseline: no-protein control
Reading: higher = stronger binding
Shared flanks, not repeated: GGGAGUUCUACAGUCCGACGAUC … UGGAAUUCUCGGGUGCCAA
Construct (chain): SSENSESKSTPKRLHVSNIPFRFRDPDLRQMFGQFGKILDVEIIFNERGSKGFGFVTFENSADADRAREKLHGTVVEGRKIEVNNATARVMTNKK
Strand | RBNS enrichment (R)
AGCCUUCUCCCCCUCCACUCUCUGCCUGUAGGAUGUACUGUAUGUAGUCAUGCACUUUGUAUUAAUAUAUUAGAAAUCUACAGAUCUGUUUUGUACUUUUUAUACUGUUG | 1.25
UAUUAAUAGAUGCAUAUAUACAUGACAUAUUGUGGUUAAUUUUAAAACUACUGUGCCUUAACGUGUUUCUUAAACUUUUGUAGUAAAUGAACAUUUGAAAUCCAUUUUGA | 0.42
CCUGGUAUUCUGUGAUCUGCCUCUUGCUGCCAUUCUUUCUCUCCUCUGCUUCUCUGUAUUUUUCUUCUGUUAUCCCUGGGGGUGCUCAGGUUCACUUGAUUGUCUGUAUU | 1.51
CUCUACACACCAACCCUUUCUUUCCUAUCUAGCUUUCUAGUAGGGAGCGGGAGGGGGGAGGGGAAGGGUAACCCACUGCUUCAUCUCAUCGGGUAUGCAUGUCCGGUAGG | 6.09
ACCUGCCACGGCCACCUCCGAGACAAAAUCCUUGCUGCUUCUCUUUCAUGGUGCUGUCCCGCCGGAGGAGGCCAUCCAUCCGUCCCUGGGAUGCAACAUGGGGUCCCAAU | 0.309
UUGUUGACUGUGAUUAGAUCACACCUUAAUUCAUUUCUAGACUCAAAACCUGGAGACGCAGCUACUGGAAUGGUGUUUUGUGAGACUUCCAAGGCUGGAAAGACACAGUC | 0.423
AUUAAGCCUUGUGCAGGAUGAUGGAUUUGACUUACUAAUGUACUGUCACAGACAAAUAUGGGUAGUUUUGUUUAAAUAGGUAAGCAAAAUAUUAUACUUUAUAGCAGUGG | 0.279
CUGUCUUGAGCUGGGCGUCUCUUUAAUUACUGCCUCUGCCCCGGACCCUUCUCUCUAGACUUGGGAAGCACUCCUUCCUAGAAGCCACACAUCACUCCAAGGCUCAGCUG | 0.318
UGAUUGUCACAGAGAUGGUAGAAAUUAUGAUCUGACUGGAAAACAAUCCUGUAUCCCCUCCCAAAGAAUCAUGGGCUUUUUUUUUGAAUAAAAAAGCAGACAAAUAGACU | 0.428
CCCUCUGAUCCUGGACUCCCCAUGUCUAGUUCAGACCUAUUUCCUGUUCCCUUGAUAGCUUCGGGUCAUUGGUGGCAGCUCAUGUCCUCGGCGCUCCUUGUGUGGAGGCC | 0.776
AUUUAAUGCACUGCCCAGAAAGAGCCAUGUGUAAGAGUUGUUCUCUGUUUGAGGAACUAACUACAUGGAAAAGACUUCUGACUUAAACCCAUGAAAUACUUCAUCUUGAG | 0.331
CAAGAGGAAACUUGAUAAUUUUAAACUCUUUUCCCCCUUUACCGUCAUCUAUCCUCUAUCUGUAUCAAGCUCACUGCGGAUCCUGCUGUAAAACUGGUGGGUAGCUGGGC | 0.279

Sample 3
Organism: Saccharomyces cerevisiae
Read-out: binding
Method: competitive growth deep sequencing
Form: peptide
Strain: cyclin E1-Cln2 fusion strain
Notes: peptide tiling library
Reading: direction not given
Molecule | enrichment score
VLLKRLQDVVSERANH | -0.768
ALLRRLQDVANDRGSH | -1.54
ISRLFPPRTPGWHQLQ | -1.94
ESSTVSEEDYFSSHRD | 1.22
SFLIEYEFLIPPSLKP | 2.04
TSPGPVLLHPSPSTTQ | 0.825
TRRRLFVENDSP | 2.67
GQLVIPLDELTLDTSF | 2.69
IQKKLRFEDTLEFVGF | -0.88
PFSENVSAVQKLDFSD | 1.9
SPREGHMMDALYAQVK | 0.799
LAKRALKYTD | -0.684
RSLKLDGLLEEN | -1.12
SDSTVTKLDFDLEP | 1.36
RDLFDCDFGDLTPLDF | 1.88
AGSAKRRLFGEDPPKE | 2.97
RVSGLLSWTLSRVLWL | -0.558
KSKHEEEEWTDDDLVE | 1.11
CFRCLLFSFSGRSGVE | -1.17
QDYERRLLRQIVIQNE | -0.68
PLRKAKRARLCSSSSS | 1.81
KDDDKAWEYEERDRRS | 0.411
KPITLDTTDFQESFVT | 0.646
LKGRRLVFDN | -0.796
KRRLDLETDHQY | 0.959

Sample 4
Target: Prothrombin, mature alpha-thrombin (F2, Homo sapiens, UniProt P00734)
Method: aptamer microarray, sandwich
Form: DNA with 2'F-ANA
Sample: in vitro
Tested at: 200 nM
Notes: whole 15-mer aptamer, many near background
Together with: Cy3 exosite-II aptamer, 400 nM
Reading: higher = stronger binding
Strand: GGTTGGTGTGGTTGG
Modification | mean fluorescence intensity
2'F-ANA at 1 3 6 7 10 12 13 | 98.4 a.u.
2'F-ANA at 1 2 3 4 5 6 7 8 9 10 11 13 | 63.4 a.u.
2'F-ANA at 4 5 7 8 9 12 13 | 98.1 a.u.
2'F-ANA at 1 2 3 5 6 10 11 12 13 15 | 80 a.u.
2'F-ANA at 1 2 3 4 5 6 8 10 11 14 | 50.3 a.u.
2'F-ANA at 1 2 3 4 5 7 11 12 14 15 | 47.1 a.u.
2'F-ANA at 5 6 7 8 12 14 | 63.5 a.u.
2'F-ANA at 1 4 6 11 13 15 | 92.7 a.u.
2'F-ANA at 8 10 11 13 15 | 131 a.u.
2'F-ANA at 1 3 4 8 9 10 11 14 15 | 51.7 a.u.
2'F-ANA at 1 2 5 6 8 14 | 79.4 a.u.
2'F-ANA at 3 4 5 6 7 9 10 11 13 14 | 50 a.u.
2'F-ANA at 4 6 7 11 14 15 | 96 a.u.
2'F-ANA at 6 8 9 12 13 14 | 202 a.u.
2'F-ANA at 2 4 5 7 8 9 11 13 14 15 | 45.2 a.u.
2'F-ANA at 3 4 7 8 10 12 | 455 a.u.
2'F-ANA at 1 2 7 10 11 14 | 48.1 a.u.

A few entries again (sample 3):
Molecule | enrichment score
RSLKLDGLLEEN | -1.12
AGSAKRRLFGEDPPKE | 2.97
ISRLFPPRTPGWHQLQ | -1.94
QDYERRLLRQIVIQNE | -0.68
LAKRALKYTD | -0.684
RDLFDCDFGDLTPLDF | 1.88
KPITLDTTDFQESFVT | 0.646
SFLIEYEFLIPPSLKP | 2.04
CFRCLLFSFSGRSGVE | -1.17
VLLKRLQDVVSERANH | -0.768
KRRLDLETDHQY | 0.959
